# Measured values gathered from unrelated publications.
# A part holds a random share of what one study measured.

# Block 1
# Molecule: PhoQ, residues 284 288 289 292 302 303 SACGEM
# Method: Sort-seq
# Item: YFP reporter
# Medium: E. coli
# Notes: PhoQ-PhoP variant library
# Added: 10 µM Mg2+
# Relative to: high Mg2+ state
# Reading: higher = stronger signaling
target,fold induction
"PhoP, residues 12 14 15 18 19 TPWTL (Escherichia coli, UniProt P23836)",1.36
"PhoP, residues 12 14 15 18 19 LHHYF (Escherichia coli, UniProt P23836)",30.7
"PhoP, residues 12 14 15 18 19 NFFVT (Escherichia coli, UniProt P23836)",6.58
"PhoP, residues 12 14 15 18 19 VGHWL (Escherichia coli, UniProt P23836)",2.28

# Block 2
# Target: Centromere-binding protein 1, full length, N-terminal tag (CBF1, Saccharomyces cerevisiae, UniProt P17106, residues 1-351)
# Chain of UniProt P17106 (whole entry, looked up): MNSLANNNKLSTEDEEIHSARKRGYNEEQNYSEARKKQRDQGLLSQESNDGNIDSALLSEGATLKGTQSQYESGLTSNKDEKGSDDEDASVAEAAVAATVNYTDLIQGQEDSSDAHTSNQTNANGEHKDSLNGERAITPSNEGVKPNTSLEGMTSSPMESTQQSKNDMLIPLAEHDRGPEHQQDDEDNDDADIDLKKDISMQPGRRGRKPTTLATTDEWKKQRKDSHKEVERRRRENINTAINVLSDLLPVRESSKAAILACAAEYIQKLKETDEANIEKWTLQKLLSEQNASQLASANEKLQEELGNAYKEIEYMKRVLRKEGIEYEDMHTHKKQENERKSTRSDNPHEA
# Method: protein-binding microarray
# Molecule type: double-stranded DNA, one strand shown
# Medium: in vitro
# Concentration: 0.8 µM
# Notes: whole 60-bp probe, no competitor
# Reading: higher = stronger binding
# Constant ends, left off below: … GTCTTGATTCGCTTGACGCTGCTG
Strand,fluorescence intensity
CTAAAAAAAAAAAAGCACGTGCTCAAAAATGTTTTC,19600 a.u.
GAATCTCGGTTCAATCAGTTGAATAGCGAACCTTAG,516 a.u.
GAAGGTAGCCCGCGAAACGTGCGGGCCTGATGTTAG,525 a.u.
CTATGATGCATTTTGCACGAGATAATCGCTCTTTTC,661 a.u.
GAACTGGGGAAGGTGCACGCCCTTTTCACAAGATAG,569 a.u.
CTATCTGTGGCTTCCCACGTTGTGTTAGCATTATTC,536 a.u.
GAATTTCATCGCCTTCACCCCACCCATTTGCATTAG,532 a.u.
CTAGCGCGGTTCGATCACGGATATACTTTCAACTTC,543 a.u.
GAACTATTCCAACCAGAGCTGACGAGCTAAAAGTAG,503 a.u.
GAAAAAAAAGCTCACCACGAAAAAACTGAAAAATAG,564 a.u.
CTACCCCCTATCTCCCACATGTTGGCATCTGTGTTC,523 a.u.
CTAATCAGAACAGAGCACGGGAATAGTGATCTCTTC,615 a.u.
CCTAACTACTATAATGCCGTGGCATAGCTTCGTACA,509 a.u.
GAATATGTTTATTTGCACGTCACGTTTGTGTTATAG,2650 a.u.
CTATAATGACATTGTCATGATCACTGACTCAAATTC,594 a.u.
GAAAGTTAAGAAGATAACGTGGTGAATTTTACCTAG,683 a.u.
GAACAAGAGTTCTTCCACGTTTTGTTTATATCATAG,618 a.u.
GAAGTCATTTGGAATGATGTCACCGAGATTAGATAG,524 a.u.
CTACTGAAATCAATCTTCGTGCACCCAGAGAAGTTC,548 a.u.
GAAGAGCACTACCATGACGTCATTAACGTAAAATAG,550 a.u.
CCTAACTACTATAGGGGTCACGTATAGCTTCGTACA,848 a.u.
CTATTAGTTTCAAGGTGACAGGTTATGAAGATATTC,579 a.u.
GAAATCGATTTTTGTCACCTGCAAACTCTTCTTTAG,864 a.u.

# Block 3
# Target: RING finger protein unkempt homolog, zinc fingers 1-6, GST-SBP tag (UNK, Homo sapiens, UniProt Q9C0B0, residues 30-357)
# Method: RNA Bind-n-Seq
# Molecule type: RNA
# Medium: in vitro
# Concentration: not given
# Notes: RNA with constant flanks, human and mouse sites, ends assumed
# Relative to: input RNA pool
# Reading: higher = stronger binding
# Constant ends, left off below: GGGAGUUCUACAGUCCGACGAUC … CAACAGAGGAUUGAGCAUCA
# Construct (chain): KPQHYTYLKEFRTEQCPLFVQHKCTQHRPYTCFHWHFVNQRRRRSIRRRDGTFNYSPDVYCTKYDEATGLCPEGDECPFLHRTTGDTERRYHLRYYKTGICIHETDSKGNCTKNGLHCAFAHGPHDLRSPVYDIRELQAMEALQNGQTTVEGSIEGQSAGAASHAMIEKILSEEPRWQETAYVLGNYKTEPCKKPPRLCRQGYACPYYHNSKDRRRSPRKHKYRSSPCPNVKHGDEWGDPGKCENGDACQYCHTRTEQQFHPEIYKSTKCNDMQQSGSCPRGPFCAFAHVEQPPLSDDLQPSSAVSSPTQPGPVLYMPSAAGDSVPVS
Strand,bound/input enrichment
CAGCUUCGGCAGGACAUUGUUGCUGGACGUCUGCCCUGUUCCUUUGCAACUUUAGCCCUACUCGGGUCUUACACGAUCCAGUCUGAGCUGGGAGACUAUGACCCAGAACUGCACGGCAUG,0.149 ratio
GCAACGGAGAUAAAUUCCCGGAACCGCGAUUCGGCGUGUCAGGAAUUCGAAUUUAGAGUUUAAUUUCUCAGAGCAUUCUCUCCAGGAAGAAUUUUUACAGUAUCUCAAAGACUUCACUUG,0.824 ratio
UCAGAAGAAGAAUGUACUACUAGUUAUUUAACAUUAUGCAAUGAAUAUGGGCAAGAAAAGAUUGAACCAGGGUCUUUGAAUGAGGAGCCCUUCAUGAAGACUGAAGGGAAUGGUGUUGAU,6.13 ratio
GAAUCCGCUUGUCAGUCUCGCAAGAAGAAGAAAGAAUAUAUGCUAGGGUUAGAGGCGAGAUUAAAGGCUGCCCUCUCAGAAAACGAGCAACUGAAGAAAGAAAAUGGAACACUGAAGCGG,0.511 ratio
AACACGAUUCCCAGUUUCUUCAACUGGUUCUCAGACCACAGCCUCCUAGAAUUCGACAGAAUAGCUGAAAUUAUCAAAGGGGAGCUGUGGUCCAAUCCCCUACAAUACUAUCUGAUGGGC,0.41 ratio
UGUACAACAUGUCUUUGUAAUUUAUAGAAACAAGUCUAGGUGUUGAUACCUUGUGGUCUAAUAGAUGUGGAUACCAUUCAUUUUACUUGAAAUUUUGUUGUCUACUUUAAGUGUAUUUGC,0.322 ratio
AAACUGAAAGACCACUAUCUGGAGUUUGAGAAAACCCGCUAUGAAAUGUAUGUCAGCAUUCUCAAGGAAGGAGGCAAAGAGCUACUGAGUAACGAUGAAAGCGAGGCUGCAGGACUGAAG,0.318 ratio
UAUCCAACUUUCUUUCCACGUUUUGAAUUCCAAGAUGUUAUCCCUCCAGAUGACUUUCUAACUAGUGAUGAAGAAGUAGAUUCCGUUUUAUUUGGAAGUUUGAGAGGUCAUGUGGUUGGA,0.8 ratio
AAAGAAACAGAAGAAGGAGAAGACAAUUUGCUCUGUAACCUUCGGGAAGUUCAGUGCCUUAUCUGUUGCCUGUUACACCAAAUGUACAUUGCAGAUCCCAACAUUGCUAAACUUGUUCAC,0.0902 ratio
UCAAAUAUAUAAGAGCCAAACUCUUUUCCAUUCCAUCUAAAAUGUUUUCAUUUAGUACUCUUCUUUCCUCCUACUCUAUGAACUUCAAAACAAAAACAAAACUUUGAGAGCAGCACAUGC,0.92 ratio
UUUGCCCGGCACACAGCGCUCAAGCCCCACGCAUGUCCGCGCUGCGGCAAGGGUUUCAAGCACAGCUUCAACCUAGCCAACCACCUGCGCUCGCACACCGGGGAGCGGCCCUACCGCUGC,0.259 ratio

# Block 4
# Target: Interferon regulatory factor 5, full length, phosphomimetic (IRF5, Homo sapiens, UniProt Q13568-2, residues 1-514, S451D/S453D/S456D/S462D)
# Method: protein-binding microarray
# Molecule type: double-stranded DNA, one strand shown
# Medium: in vitro
# Concentration: 940 nM top
# Notes: 60-bp whole probe
# Added: salmon DNA 0.4 mg/ml
# Relative to: random background probes
# Reading: higher = stronger binding
# Constant ends, left off below: GCCTAGCAC … GTCTTGATTCGCTTGACGCTGCTG
Strand,fitted relative affinity
GACGAACTGAGTTTCGAAACGTGCTAG,4.41 z-score
TTAGGTATCGGTATAGGTTAGTGCTAG,9.85 z-score
TCATTTTTTGGTTTCTGACTGTGCTAG,2.37 z-score
TCAAAACTCTTTATTTAACTGTGCTAG,0.758 z-score
GACGGGTTCGACTTTCGGGACGTGCTA,0.941 z-score
GACGGTCTCCTTTTCATGACGTGCTAG,0.889 z-score
TCCCCTTCTACTCTCCTGCAGTGCTAG,1.33 z-score
GACGGTCTCGGTATCGGGACGTGCTAG,5.04 z-score
TCAATGTTCACTATTTAACTGTGCTAG,0.464 z-score
TTAGATTCCAGTATCGATTAGTGCTAG,5.25 z-score
TTAGCTCTCAGTATCGATTAGTGCTAG,5.45 z-score
TCCTCTTTCTCTGCTACCCTTGTGCTA,2.34 z-score
GGCGGTTTCCTACTGCTGACGTGCTAG,0.883 z-score
CACGATTCCAGTTTCGAGACGTGCTAG,4.16 z-score
ATGCTACAATAAGTGTTAGTGTGCTAG,-0.226 z-score
TATTGTTTCCTTCCTCTTTTGTGCTAG,2.29 z-score
TTAGATATTGGGTTTCGATTAGTGCTA,5.91 z-score
CCTAGCCTCCCAGCCCAGCAGTGCTAG,0.325 z-score
TTAGCTATCGGGTATCGGTTAGTGCTA,3.01 z-score
GGATGAAGCGCTTCTCGAGTGGTGCTA,-0.658 z-score
TTAGGTATCGGTTTCGCTTAGTGCTAG,11.2 z-score

# For quick reference, copied from above (block 2):
Strand,fluorescence intensity
CTACCCCCTATCTCCCACATGTTGGCATCTGTGTTC,523 a.u.
CTAATCAGAACAGAGCACGGGAATAGTGATCTCTTC,615 a.u.
CCTAACTACTATAATGCCGTGGCATAGCTTCGTACA,509 a.u.
GAATATGTTTATTTGCACGTCACGTTTGTGTTATAG,2650 a.u.
CTATAATGACATTGTCATGATCACTGACTCAAATTC,594 a.u.
GAAAGTTAAGAAGATAACGTGGTGAATTTTACCTAG,683 a.u.
GAACAAGAGTTCTTCCACGTTTTGTTTATATCATAG,618 a.u.
GAAGTCATTTGGAATGATGTCACCGAGATTAGATAG,524 a.u.
CTACTGAAATCAATCTTCGTGCACCCAGAGAAGTTC,548 a.u.
